Results gathered from unrelated publications.
Numbered parts are unrelated; each lists some results of a single study. Changes are numbered by the printed parent chain.

Study 1
Target: PABPC1L2, full length, GST fusion (mouse, UniProt A0ABA7IW68)
Technique: RNAcompete
Molecule type: RNA
Medium: in vitro
Tested at: 20 nM
Notes: 7-mer, probes averaged, single round
Reference: mean of 7-mers
Reading: higher = stronger binding
Residues (chain): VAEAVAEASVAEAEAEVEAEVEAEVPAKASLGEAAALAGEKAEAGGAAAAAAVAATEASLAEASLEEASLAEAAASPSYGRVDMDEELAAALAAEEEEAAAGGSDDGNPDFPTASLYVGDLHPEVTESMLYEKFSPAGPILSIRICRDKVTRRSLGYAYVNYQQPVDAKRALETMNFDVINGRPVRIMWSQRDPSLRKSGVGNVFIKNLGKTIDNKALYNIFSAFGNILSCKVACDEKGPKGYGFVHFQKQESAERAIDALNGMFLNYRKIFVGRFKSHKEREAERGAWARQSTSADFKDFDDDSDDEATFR
Oligonucleotide | 7-mer Z-score
UCCCGUU | -0.501
ACAUCGG | 0.0225
GGGCCCG | -0.0138
UGUAGUA | -0.208
CUAUGCC | -0.389
UACGGCU | -0.157
CGGUCAA | -0.184
UAACUAG | -0.0681

Study 2
Target: Histone acetyltransferase KAT6A, winged helix 1, GST fusion (KAT6A, Homo sapiens, UniProt Q92794, residues 1-85)
Technique: protein binding microarray
Molecule type: double-stranded DNA, one strand shown
Medium: in vitro
Tested at: not given
Notes: 8-mer, flanks averaged, mean of 2 arrays, mostly near background
Reference: not given
Reading: higher = stronger binding
Construct (chain): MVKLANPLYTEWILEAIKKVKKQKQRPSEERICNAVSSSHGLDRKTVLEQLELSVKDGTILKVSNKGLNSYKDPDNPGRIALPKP
Oligonucleotide | E-score
CATTCGGG | 0.12
CATCACTC | -0.0792
CTGGGTAC | -0.0924
CATGGTAG | -0.00598
AACGTTAA | 0.112
CTATATAC | -0.0166
CACGCGGG | 0.325
CATGCGGG | 0.187

Study 3
Target: CEP164, C-terminal peptide (human)
Technique: DHFR complementation, deep sequencing
Medium: yeast
Notes: single substitutions, model-inferred values
Reference: wild type
Reading: higher = weaker binding
Parent: PDZK1, PDZ domain 2 (human); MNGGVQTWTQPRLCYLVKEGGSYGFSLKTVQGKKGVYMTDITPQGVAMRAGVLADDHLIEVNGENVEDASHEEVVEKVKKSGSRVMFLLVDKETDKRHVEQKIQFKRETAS; partner HNRVKVYRF
Substitution | binding free energy change [kcal/mol]
D95S | -0.227
V74L | 0.822
E64S | 0.224
I41W | 1.42
K18S | 0.244
G35V | 0.454
I59R | 0.803
V36Y | 1

Single results of other studies
Parent: viral docking peptide; KGVKRKLFAEDSS; partner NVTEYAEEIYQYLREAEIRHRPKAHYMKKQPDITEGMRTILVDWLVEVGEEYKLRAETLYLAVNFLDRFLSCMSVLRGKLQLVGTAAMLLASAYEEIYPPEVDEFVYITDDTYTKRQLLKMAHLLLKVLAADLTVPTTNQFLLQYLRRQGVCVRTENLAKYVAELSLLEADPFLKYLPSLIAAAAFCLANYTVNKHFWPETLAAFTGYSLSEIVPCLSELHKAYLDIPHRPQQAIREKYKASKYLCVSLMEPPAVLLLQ
Substitution | target | test | test system | setting | scale | measurement | result
KGVKRKLFAEASS [D11A] | CCNA1, cyclin fold, Cln2 fusion (human) | yeast growth competition, sequencing | yeast | weak parent motif | reference: not given, higher = stronger binding | normalised enrichment score | 1

For quick reference, copied from above (study 1):
Oligonucleotide | 7-mer Z-score
UGUAGUA | -0.208
CUAUGCC | -0.389
UACGGCU | -0.157
CGGUCAA | -0.184
